Measurements collected from several papers.
Compare with care: the assays were run in different laboratories. ± marks the error that the study gave.
ESR1: Estrogen receptor (ESR1, Homo sapiens, UniProt P03372)
UniProt P03372, sequence (whole entry, looked up): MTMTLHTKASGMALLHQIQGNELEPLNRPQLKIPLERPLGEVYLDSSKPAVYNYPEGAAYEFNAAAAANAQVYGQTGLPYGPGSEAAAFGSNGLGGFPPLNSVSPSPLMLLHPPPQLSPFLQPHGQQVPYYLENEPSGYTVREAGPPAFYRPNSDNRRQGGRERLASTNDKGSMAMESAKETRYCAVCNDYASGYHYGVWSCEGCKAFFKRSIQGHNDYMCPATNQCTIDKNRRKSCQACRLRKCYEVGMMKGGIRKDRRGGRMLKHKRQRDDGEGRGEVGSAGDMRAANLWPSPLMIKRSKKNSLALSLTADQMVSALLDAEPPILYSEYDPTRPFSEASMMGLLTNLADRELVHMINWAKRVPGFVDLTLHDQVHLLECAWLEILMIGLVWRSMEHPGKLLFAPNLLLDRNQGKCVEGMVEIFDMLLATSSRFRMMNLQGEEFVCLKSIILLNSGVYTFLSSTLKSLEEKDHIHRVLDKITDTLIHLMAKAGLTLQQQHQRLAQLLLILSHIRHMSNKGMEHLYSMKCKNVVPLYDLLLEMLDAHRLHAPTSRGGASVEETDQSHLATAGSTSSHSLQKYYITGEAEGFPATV
DRD3: D(3) dopamine receptor (DRD3, Homo sapiens, UniProt P35462)
UniProt P35462, sequence (whole entry, looked up): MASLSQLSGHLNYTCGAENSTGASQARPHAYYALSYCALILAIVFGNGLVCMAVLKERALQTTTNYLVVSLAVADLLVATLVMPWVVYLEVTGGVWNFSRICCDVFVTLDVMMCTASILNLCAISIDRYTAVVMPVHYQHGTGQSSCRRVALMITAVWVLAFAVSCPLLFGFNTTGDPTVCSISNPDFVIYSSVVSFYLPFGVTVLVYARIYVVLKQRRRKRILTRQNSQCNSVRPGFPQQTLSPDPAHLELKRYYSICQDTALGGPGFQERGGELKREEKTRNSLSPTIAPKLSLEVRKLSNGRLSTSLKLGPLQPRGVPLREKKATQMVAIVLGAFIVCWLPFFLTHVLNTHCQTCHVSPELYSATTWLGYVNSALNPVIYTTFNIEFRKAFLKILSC
RORC: Nuclear receptor ROR-gamma (RORC, Homo sapiens, UniProt P51449)
UniProt P51449, sequence (whole entry, looked up): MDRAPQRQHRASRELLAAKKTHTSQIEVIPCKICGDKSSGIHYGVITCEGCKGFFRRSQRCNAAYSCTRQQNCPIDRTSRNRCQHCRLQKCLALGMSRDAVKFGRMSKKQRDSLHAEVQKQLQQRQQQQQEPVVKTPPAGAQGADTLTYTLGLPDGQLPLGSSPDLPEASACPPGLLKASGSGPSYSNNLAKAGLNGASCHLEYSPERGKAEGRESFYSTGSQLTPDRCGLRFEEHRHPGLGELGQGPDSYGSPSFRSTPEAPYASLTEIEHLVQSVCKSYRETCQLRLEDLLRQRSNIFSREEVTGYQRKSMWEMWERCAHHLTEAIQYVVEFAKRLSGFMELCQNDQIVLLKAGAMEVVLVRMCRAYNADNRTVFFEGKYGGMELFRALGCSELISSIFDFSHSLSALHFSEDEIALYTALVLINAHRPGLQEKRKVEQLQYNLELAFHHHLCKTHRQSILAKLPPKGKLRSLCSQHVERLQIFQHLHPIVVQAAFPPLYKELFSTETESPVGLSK
CDK2: Cyclin-dependent kinase 2 (CDK2, Homo sapiens, UniProt P24941)
CDK2 with cyclin A: Cyclin-dependent kinase 2, with cyclin A (CDK2, Homo sapiens, UniProt P24941)
SLC10A1: Hepatic sodium/bile acid cotransporter (SLC10A1, Homo sapiens, UniProt Q14973)
UniProt Q14973, sequence (whole entry, looked up): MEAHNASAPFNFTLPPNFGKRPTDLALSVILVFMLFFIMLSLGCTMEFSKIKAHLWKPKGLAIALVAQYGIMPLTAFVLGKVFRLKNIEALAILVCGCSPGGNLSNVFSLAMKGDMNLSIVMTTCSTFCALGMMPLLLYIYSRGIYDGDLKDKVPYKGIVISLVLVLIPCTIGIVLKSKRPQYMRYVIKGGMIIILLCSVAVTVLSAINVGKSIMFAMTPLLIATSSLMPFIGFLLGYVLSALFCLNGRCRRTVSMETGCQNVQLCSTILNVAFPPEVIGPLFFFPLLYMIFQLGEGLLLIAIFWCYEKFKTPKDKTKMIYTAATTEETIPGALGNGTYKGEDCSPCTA
MBLAC2: MBLAC2 (Homo sapiens, UniProt Q68D91)
UniProt Q68D91, sequence (whole entry, looked up): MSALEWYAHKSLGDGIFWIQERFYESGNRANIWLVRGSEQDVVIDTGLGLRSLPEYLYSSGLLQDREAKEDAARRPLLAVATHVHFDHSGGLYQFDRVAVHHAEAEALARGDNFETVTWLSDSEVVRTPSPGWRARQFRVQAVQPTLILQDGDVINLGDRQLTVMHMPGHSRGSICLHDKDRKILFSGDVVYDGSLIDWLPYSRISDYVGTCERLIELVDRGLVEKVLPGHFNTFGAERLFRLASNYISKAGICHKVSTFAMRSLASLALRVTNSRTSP
UniProt Q9UL54, sequence (whole entry, looked up): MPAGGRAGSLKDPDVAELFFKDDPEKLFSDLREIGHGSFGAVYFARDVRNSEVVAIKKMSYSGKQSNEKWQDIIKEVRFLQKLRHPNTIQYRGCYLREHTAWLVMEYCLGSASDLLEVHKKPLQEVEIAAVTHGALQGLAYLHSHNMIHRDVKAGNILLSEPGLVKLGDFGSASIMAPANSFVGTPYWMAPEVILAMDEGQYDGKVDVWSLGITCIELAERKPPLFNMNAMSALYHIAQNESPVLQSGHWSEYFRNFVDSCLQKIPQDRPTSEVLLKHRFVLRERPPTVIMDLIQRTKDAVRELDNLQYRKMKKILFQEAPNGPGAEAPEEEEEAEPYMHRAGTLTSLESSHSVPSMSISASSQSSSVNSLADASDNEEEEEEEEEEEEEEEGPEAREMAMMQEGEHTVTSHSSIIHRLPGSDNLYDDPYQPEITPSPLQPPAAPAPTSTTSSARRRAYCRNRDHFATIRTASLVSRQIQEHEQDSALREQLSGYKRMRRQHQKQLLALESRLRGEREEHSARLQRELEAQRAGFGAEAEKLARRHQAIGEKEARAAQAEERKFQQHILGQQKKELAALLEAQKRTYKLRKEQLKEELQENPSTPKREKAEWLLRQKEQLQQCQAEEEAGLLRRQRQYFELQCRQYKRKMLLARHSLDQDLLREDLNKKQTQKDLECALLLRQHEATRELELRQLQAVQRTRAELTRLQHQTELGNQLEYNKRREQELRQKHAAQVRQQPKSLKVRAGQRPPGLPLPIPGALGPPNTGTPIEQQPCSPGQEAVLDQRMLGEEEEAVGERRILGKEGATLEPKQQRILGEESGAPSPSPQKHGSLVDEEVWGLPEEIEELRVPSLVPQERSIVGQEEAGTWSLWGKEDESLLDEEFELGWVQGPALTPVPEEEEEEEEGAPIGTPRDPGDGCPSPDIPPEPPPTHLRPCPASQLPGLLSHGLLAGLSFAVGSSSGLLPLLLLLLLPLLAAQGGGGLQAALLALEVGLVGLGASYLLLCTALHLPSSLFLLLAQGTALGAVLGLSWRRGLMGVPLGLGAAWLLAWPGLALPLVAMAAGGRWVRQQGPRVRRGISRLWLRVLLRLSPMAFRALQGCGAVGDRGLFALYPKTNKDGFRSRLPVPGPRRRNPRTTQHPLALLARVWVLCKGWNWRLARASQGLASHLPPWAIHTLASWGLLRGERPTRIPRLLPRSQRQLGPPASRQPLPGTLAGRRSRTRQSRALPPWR
UniProt P14618, sequence (whole entry, looked up): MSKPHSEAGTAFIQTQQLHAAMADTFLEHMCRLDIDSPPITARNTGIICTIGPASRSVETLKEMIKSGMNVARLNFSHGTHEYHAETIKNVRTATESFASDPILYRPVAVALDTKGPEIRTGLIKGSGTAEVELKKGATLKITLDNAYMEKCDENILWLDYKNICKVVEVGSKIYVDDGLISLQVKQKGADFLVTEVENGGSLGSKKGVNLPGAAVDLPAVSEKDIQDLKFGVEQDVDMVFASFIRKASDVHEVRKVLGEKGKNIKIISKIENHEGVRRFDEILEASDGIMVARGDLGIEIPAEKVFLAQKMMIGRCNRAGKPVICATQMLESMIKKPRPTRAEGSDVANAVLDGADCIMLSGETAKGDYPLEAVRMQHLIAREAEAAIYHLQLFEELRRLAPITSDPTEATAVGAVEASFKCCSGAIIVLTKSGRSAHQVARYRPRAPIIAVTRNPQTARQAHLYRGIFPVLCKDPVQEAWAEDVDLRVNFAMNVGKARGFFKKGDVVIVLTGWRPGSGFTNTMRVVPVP
UniProt Q96PF2, sequence (whole entry, looked up): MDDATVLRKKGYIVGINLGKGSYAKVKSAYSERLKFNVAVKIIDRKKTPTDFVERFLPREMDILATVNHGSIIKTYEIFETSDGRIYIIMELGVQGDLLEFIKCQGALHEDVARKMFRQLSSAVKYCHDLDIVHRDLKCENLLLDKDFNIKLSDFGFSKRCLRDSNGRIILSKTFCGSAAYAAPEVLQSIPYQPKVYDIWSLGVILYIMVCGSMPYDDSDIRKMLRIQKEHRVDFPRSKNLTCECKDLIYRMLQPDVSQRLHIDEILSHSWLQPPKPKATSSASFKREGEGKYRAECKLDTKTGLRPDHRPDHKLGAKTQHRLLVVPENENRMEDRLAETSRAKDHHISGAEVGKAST
UniProt Q86UW9, sequence (whole entry, looked up): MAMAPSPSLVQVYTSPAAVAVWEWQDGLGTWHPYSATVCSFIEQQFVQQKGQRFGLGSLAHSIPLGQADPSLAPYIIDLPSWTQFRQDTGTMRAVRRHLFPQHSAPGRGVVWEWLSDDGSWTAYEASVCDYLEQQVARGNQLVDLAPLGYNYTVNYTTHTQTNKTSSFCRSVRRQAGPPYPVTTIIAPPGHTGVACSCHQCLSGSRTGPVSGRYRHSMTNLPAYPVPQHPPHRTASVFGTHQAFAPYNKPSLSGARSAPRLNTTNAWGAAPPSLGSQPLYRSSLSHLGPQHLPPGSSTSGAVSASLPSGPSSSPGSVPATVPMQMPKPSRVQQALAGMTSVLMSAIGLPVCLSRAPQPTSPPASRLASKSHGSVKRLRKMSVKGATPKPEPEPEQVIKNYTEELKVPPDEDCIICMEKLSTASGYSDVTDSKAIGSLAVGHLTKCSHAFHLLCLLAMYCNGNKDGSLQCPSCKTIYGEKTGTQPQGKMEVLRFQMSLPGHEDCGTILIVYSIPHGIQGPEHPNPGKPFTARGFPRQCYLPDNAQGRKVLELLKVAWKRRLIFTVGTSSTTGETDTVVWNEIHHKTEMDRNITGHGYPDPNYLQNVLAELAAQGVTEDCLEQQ

O=c1cc(-c2ccccc2)oc2cc(O[C@@H]3O[C@H](CO[C@@H]4O[C@H](CO)[C@@H](O)[C@H](O)[C@H]4O)[C@@H](O)[C@H](O)[C@H]3O)c(O)c(O)c12  EC50 (ESR1; array formation, agonist; ERα-GFP PRL-HeLa; 1 h): 1.86 µM
Cc1[nH]c(C)c(S(=O)(=O)Nc2ccc(C(F)(F)F)c(Cl)c2)c1C(=O)N1CCNCC1  IC50 (DRD3; Go activation, antagonist, BRET; with: dopamine): > 100 µM
COc1cc(Cl)ccc1COc1ccc2c(c1)N(S(=O)(=O)c1cccc(C(F)(F)F)c1)CC2  EC50 (RORC; reporter gene, agonist, GAL4 luciferase reporter; with: ursolic acid 2 µM): 1.5 ± 0.29 µM
CC(C)(COP(=O)(O)OP(=O)(O)OC[C@H]1O[C@@H](n2cnc3c(N)ncnc32)[C@H](O)[C@@H]1OP(=O)(O)O)[C@@H](O)C(=O)NCCC(=O)NCCS  Kd (DTX2 (Homo sapiens, UniProt Q86UW9); competitor, competition MS pulldown; SW-620 cell lysate; with: photo-immobilized beads): 8.7 µM
CSc1ccc(S(=O)(=O)NCc2ccccn2)cc1  Kd (CDK2; binding): > 100 µM
COc1ccc(-c2coc3cc(O)cc(O)c3c2=O)cc1  EC50 (ESR1; array formation, agonist; ERα-GFP PRL-HeLa; 1 h): 0.588 µM
O=C(Cn1ccc([N+](=O)[O-])n1)N1CCCc2ccccc21  Kd (CDK2 with cyclin A): > 100 µM
CC[C@@H]1[C@H](F)C(=O)N[C@@H]1COc1nccc2cc(C(N)=O)c(OC)cc12  IC50 (TAOK2 (Homo sapiens, UniProt Q9UL54); ATP-site binding, ActivX KiNativ profiling; THP-1 cell lysate; Lys2 TAO2 probe site): > 5 µM
COC(=O)[C@H]1[C@H]2C[C@@H]3c4[nH]c5cc(OC)ccc5c4CCN3C[C@H]2C[C@@H](OC(=O)c2cc(OC)c(OC)c(OC)c2)[C@@H]1OC  Ki (SLC10A1; taurocholate uptake, inhibitor; NTCP-expressing HEK293; with: 10 µM taurocholate): 89.1 ± 65 µM
Cc1ccc(S(=O)(=O)Nc2c(C)[nH]c(C)c2C(=O)N2CCC(F)(F)C2)cc1  IC50 (DRD3; β-arrestin recruitment, antagonist, PathHunter; with: dopamine EC80): > 100 µM
OC[C@@H](O)[C@@H](O)[C@H](O)[C@H](O)CO  Ki (SLC10A1; taurocholate uptake, inhibitor; NTCP-expressing HEK293; with: 10 µM taurocholate): 892 ± 501 µM
COc1ccc(NC(=O)CCSc2nnc3scc(-c4ccc(C)cc4)n23)cc1  Kd (CDK2; binding): > 100 µM
CCOc1nc2cccc(C(=O)O)c2n1Cc1ccc(-c2ccccc2-c2nnn[nH]2)cc1  Ki (SLC10A1; taurocholate uptake, inhibitor; NTCP-expressing HEK293; with: 10 µM taurocholate): 145 ± 44 µM
O=S(=O)(c1cccc(C(F)(F)F)c1)N1c2cc(OCc3c(Cl)cncc3Cl)ccc2CC1C(F)(F)F (stereo not shown)  EC50 (RORC; IL-17 production, inverse agonist; HEK-293T; with: ursolic acid): 0.095 µM
C/C=C1\NC(=O)[C@H]2CSSCC/C=C/[C@H](CC(=O)N[C@H](C(C)C)C(=O)N2)OC(=O)[C@H](C(C)C)NC1=O  Kd (MBLAC2; inhibitor, competition pulldown; SW620 and MV4-11 lysate; 1 h): > 30.2 µM
COc1ccc(OCC(=O)Nc2cc(-c3nn4c(C)nnc4s3)ccc2C)cc1  Kd (CDK2 with cyclin A): > 100 µM
O=c1c(O[C@@H]2O[C@H](CO)[C@@H](O)[C@H](O)[C@H]2O)c(-c2ccc(O)c(O)c2)oc2cc(O[C@@H]3O[C@H](CO[C@@H]4O[C@H](CO)[C@@H](O)[C@H](O)[C@H]4O)[C@@H](O)[C@H](O)[C@H]3O)cc(O)c12  EC50 (ESR1; array formation, agonist; ERα-GFP PRL-HeLa; 1 h): 5.98 µM
C[C@H]1C[C@@H]2[C@H]([C@@H](O)C[C@@]3(C)[C@H]2CC[C@]3(O)C(=O)CO)[C@@]2(C)C=CC(=O)C=C12  Ki (SLC10A1; taurocholate uptake, inhibitor; NTCP-expressing HEK293; with: 10 µM taurocholate): 255 ± 53 µM
CN1CCN(c2ccc(Nc3ncc4cc(C#N)c(=O)n(C5CCCC5)c4n3)cc2)CC1  IC50 (TSSK2 (Homo sapiens, UniProt Q96PF2)): 4.41 µM
Cc1ccc(NC(=O)c2ccc(CN3CCN(C)CC3)cc2)cc1Nc1nccc(-c2cccnc2)n1  Ki (SLC10A1; taurocholate uptake, inhibitor; NTCP-expressing HEK293; with: 10 µM taurocholate): 673 ± 130 µM
O=S(=O)(c1cc(C(F)(F)F)ccn1)N1CCc2ccc(OCc3c(F)cccc3Cl)cc21  EC50 (RORC; reporter gene, agonist, GAL4 luciferase reporter; with: ursolic acid 2 µM): 0.33 ± 0.05 µM
Cc1[nH]c(C)c(S(=O)(=O)Nc2ccc([S+](C)[O-])c(Cl)c2)c1C(=O)N1CCC(F)(F)C1 (stereo not shown)  IC50 (DRD3; β-arrestin recruitment, antagonist, PathHunter; with: dopamine EC80): > 100 µM
CC(=O)N=S(=O)(O)c1ccc(N/C=C2\C(=O)Nc3ccc4ncsc4c32)cc1  Kd (CDK2; binding, thermal shift): 3.58 µM
Cc1[nH]c(C)c(S(=O)(=O)Nc2ccc(C(F)(F)F)c(Cl)c2)c1C(=O)N1CCC(F)(F)C1  Kb (DRD3; β-arrestin recruitment, allosteric modulator, operational model of allostery; with: dopamine): 0.49 µM
CC(C)C(=O)Nc1ccc([N+](=O)[O-])c(C(F)(F)F)c1  Ki (SLC10A1; taurocholate uptake, inhibitor; NTCP-expressing HEK293; with: 10 µM taurocholate): 84.7 ± 2.2 µM
CCCN(CCCCOCCOCCOCCOCCOCC(=O)N[C@H](C(=O)N1C[C@H](O)C[C@H]1C(=O)NCc1ccc(-c2scnc2C)cc1)C(C)(C)C)C[C@@H](C)NC(=O)c1ccc(-c2noc(C(F)(F)F)n2)cc1  DC50 (Histone deacetylase 4 (Hdac4, Mus musculus, UniProt Q6NZM9); degrader): 0.071 µM
O=S(=O)(c1cccc(Cl)c1)N1CCc2ccc(OCc3c(F)cccc3Cl)cc21  EC50 (RORC; reporter gene, agonist, GAL4 luciferase reporter; with: ursolic acid 2 µM): 2.3 ± 0.41 µM
Cc1[nH]c(C)c(C(=O)N2CCC(F)(F)C2)c1C(=O)Nc1ccc(C(F)(F)F)c(Cl)c1  IC50 (DRD3; Go activation, antagonist, BRET; with: dopamine): > 100 µM
N=C(N)c1ccc(OCCCCCOc2ccc(C(=N)N)cc2)cc1  Ki (SLC10A1; taurocholate uptake, inhibitor; NTCP-expressing HEK293; with: 10 µM taurocholate): 615 ± 129 µM
O=C1C[C@@H](c2ccc(O)cc2)Oc2cc(O)cc(O)c21  EC50 (ESR1; array formation, agonist; ERα-GFP PRL-HeLa; 1 h): 1.12 µM
Cc1[nH]c(C)c(S(=O)(=O)Nc2ccc(C(F)(F)F)c(Cl)c2)c1C(=O)N(C)Cc1ccccc1  IC50 (DRD3; Go activation, antagonist, BRET; with: dopamine): > 100 µM
Cn1c(COc2cccc3cccnc23)nnc1SCC(N)=O  Kd (CDK2; binding): > 100 µM
Cc1[nH]c2ccccc2c1CCNCc1ccc(/C=C/C(=O)NO)cc1  Kd (MBLAC2; inhibitor, competition pulldown; SW620 and MV4-11 lysate; 1 h): 1.38 µM
COc1ccc(-c2cc(=O)c3c(O)c(OC)c(OC)c(OC)c3o2)cc1OC  EC50 (ESR1; array formation, agonist; ERα-GFP PRL-HeLa; 1 h): 1.4 µM
COc1ccc(Cl)cc1COc1ccc2c(c1)N(S(=O)(=O)c1cccc(C(F)(F)F)c1)CC2  EC50 (RORC; reporter gene, agonist, GAL4 luciferase reporter; with: ursolic acid 2 µM): 0.49 ± 0.04 µM
COc1cc(O)c2c(=O)cc(-c3ccc(O)cc3)oc2c1  EC50 (ESR1; array formation, agonist; ERα-GFP PRL-HeLa; 1 h): 0.903 µM
O=C(COP(=O)(O)O)[C@@H](O)[C@H](O)[C@H](O)COP(=O)(O)O  AC50 (Pyruvate kinase PKM (PKM, Homo sapiens, UniProt P14618); enzyme activity, activator; with: 0.2 mM PEP and 2 mM ADP): 0.0434 ± 0.0217 µM
Cc1[nH]c(C)c(S(=O)(=O)Nc2ccc(C(F)(F)F)c3cccnc23)c1C(=O)N1CCC(F)(F)C1  IC50 (DRD3; β-arrestin recruitment, antagonist, PathHunter; with: dopamine EC80): > 100 µM
C[N+](C)(C)C[C@H](O)CC(=O)[O-]  Ki (SLC10A1; taurocholate uptake, inhibitor; NTCP-expressing HEK293; with: 10 µM taurocholate): 181 ± 60 µM
COc1cc(OC)cc(OC)c1  EC50 (ESR1; array formation, agonist; ERα-GFP PRL-HeLa; 1 h): 5.51 µM
CC[C@H](C)[C@H](NC(=O)[C@H](C)NC(=O)[C@H](CCC(=O)O)NC(=O)[C@H](CCC(N)=O)NC(=O)[C@H](CC(=O)O)NC(=S)Nc1ccc2c(c1)C(=O)OC21c2ccc(O)cc2Oc2cc(O)ccc21)C(=O)N[C@@H](CCC(N)=O)C(=O)N[C@@H](CC(=O)O)C(=O)N[C@@H](CC(C)C)C(=O)N[C@@H](Cc1c[nH]c2ccccc12)C(=O)N[C@@H](CCC(N)=O)C(=O)N[C@@H](Cc1c[nH]c2ccccc12)C(=O)N[C@@H](CCCNC(=N)N)C(=O)N[C@@H](CCCCN)C(=O)N[C@@H](COP(=O)(O)O)C(=O)N[C@@H](CC(C)C)C(=O)O  selectivity ratio (14-3-3 isoforms, human; binding, fluorescence anisotropy; relative to: KD weakest isoform over 14-3-3γ): 62
Cn1c(Cc2ccccc2)nnc1Sc1ccc([N+](=O)[O-])cc1C(=O)N1CCOCC1  Kd (CDK2; binding): > 100 µM
Cn1cc2c(C(=O)O)ccc(NS(=O)(=O)c3ccc(OCC4CCC4)c(Cl)c3)c2n1  EC50 (CHRM3 (Homo sapiens, UniProt P20309); antagonist): > 10 µM
COc1ccccc1-n1nnnc1SCC(=O)Nc1ccccc1SC  Kd (CDK2; binding): > 100 µM
C[C@@H]1O[C@@H](O[C@H]2[C@H](Oc3cc(O)c(C(=O)CCc4ccc(O)cc4)c(O)c3)O[C@H](CO)[C@@H](O)[C@@H]2O)[C@H](O)[C@H](O)[C@H]1O  EC50 (ESR1; array formation, agonist; ERα-GFP PRL-HeLa; 1 h): 1.32 µM
Cc1[nH]c(C)c(S(=O)(=O)Nc2cc(Cl)ccc2C(F)(F)F)c1C(=O)N1CCC(F)(F)C1  IC50 (DRD3; β-arrestin recruitment, antagonist, PathHunter; with: dopamine EC80): > 100 µM

Excerpt of the above:
Cc1[nH]c(C)c(C(=O)N2CCC(F)(F)C2)c1C(=O)Nc1ccc(C(F)(F)F)c(Cl)c1  IC50 (DRD3; Go activation, antagonist, BRET; with: dopamine): > 100 µM
N=C(N)c1ccc(OCCCCCOc2ccc(C(=N)N)cc2)cc1  Ki (SLC10A1; taurocholate uptake, inhibitor; NTCP-expressing HEK293; with: 10 µM taurocholate): 615 ± 129 µM
O=C1C[C@@H](c2ccc(O)cc2)Oc2cc(O)cc(O)c21  EC50 (ESR1; array formation, agonist; ERα-GFP PRL-HeLa; 1 h): 1.12 µM
Cc1[nH]c(C)c(S(=O)(=O)Nc2ccc(C(F)(F)F)c(Cl)c2)c1C(=O)N(C)Cc1ccccc1  IC50 (DRD3; Go activation, antagonist, BRET; with: dopamine): > 100 µM
